Results gathered from unrelated publications.
Each line is one published result; not all experiments were run side by side. Values joined by “and” are separate records of one study, mostly repeats; a detail may differ. Numbers after ± are the reported error.
Genome polyprotein NS3 helicase domain: Genome polyprotein, NS3 helicase domain (Hepatitis C virus genotype 1b, UniProt Q9WMX2)
ESR1: Estrogen receptor (ESR1, Homo sapiens, UniProt P03372)
Sequence of UniProt P03372 (whole entry, looked up): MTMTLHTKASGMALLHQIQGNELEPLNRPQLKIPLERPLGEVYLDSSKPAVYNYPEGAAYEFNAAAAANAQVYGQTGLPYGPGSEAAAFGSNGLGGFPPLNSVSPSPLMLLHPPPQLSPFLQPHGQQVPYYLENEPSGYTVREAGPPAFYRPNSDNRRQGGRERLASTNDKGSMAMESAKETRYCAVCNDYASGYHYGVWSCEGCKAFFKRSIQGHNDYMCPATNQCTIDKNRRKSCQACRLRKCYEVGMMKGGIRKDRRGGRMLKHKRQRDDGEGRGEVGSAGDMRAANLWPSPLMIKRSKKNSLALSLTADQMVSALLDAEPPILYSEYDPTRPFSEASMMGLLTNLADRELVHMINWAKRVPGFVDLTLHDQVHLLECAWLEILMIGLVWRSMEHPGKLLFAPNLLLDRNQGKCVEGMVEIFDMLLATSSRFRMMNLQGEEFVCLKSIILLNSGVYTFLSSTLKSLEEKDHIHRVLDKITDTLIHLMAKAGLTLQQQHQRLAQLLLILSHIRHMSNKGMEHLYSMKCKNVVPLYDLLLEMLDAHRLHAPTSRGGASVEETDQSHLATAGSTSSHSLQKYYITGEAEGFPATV
WD repeat-containing protein 91 WD40 domain, residues 392–747: WD repeat-containing protein 91, WD40 domain, residues 392–747 (Homo sapiens, UniProt A4D1P6)
Sequence of UniProt A4D1P6 (whole entry, looked up): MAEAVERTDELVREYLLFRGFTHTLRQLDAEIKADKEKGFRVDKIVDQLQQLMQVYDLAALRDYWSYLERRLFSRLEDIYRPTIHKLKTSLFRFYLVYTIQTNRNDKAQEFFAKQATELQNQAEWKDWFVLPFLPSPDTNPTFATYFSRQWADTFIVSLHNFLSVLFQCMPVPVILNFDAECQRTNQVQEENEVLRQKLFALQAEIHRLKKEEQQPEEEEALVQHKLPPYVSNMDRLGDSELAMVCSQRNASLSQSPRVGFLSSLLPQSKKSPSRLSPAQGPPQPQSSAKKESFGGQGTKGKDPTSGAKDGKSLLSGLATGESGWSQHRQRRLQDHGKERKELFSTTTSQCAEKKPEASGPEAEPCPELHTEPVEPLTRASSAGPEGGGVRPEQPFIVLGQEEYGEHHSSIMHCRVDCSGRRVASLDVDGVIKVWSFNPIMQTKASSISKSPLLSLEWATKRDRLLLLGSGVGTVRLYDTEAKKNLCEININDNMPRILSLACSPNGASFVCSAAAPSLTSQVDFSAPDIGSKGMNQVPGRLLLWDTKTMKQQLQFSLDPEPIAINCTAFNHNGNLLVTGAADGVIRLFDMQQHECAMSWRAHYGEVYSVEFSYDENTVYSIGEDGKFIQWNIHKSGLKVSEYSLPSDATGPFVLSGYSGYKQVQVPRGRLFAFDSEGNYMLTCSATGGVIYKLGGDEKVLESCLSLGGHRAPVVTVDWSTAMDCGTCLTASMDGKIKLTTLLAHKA
CALM1 Ca2+-bound N-lobe: Calmodulin-1, Ca2+-bound N-lobe (CALM1, Homo sapiens, UniProt P0DP23)
Sequence of UniProt P51575 (whole entry, looked up): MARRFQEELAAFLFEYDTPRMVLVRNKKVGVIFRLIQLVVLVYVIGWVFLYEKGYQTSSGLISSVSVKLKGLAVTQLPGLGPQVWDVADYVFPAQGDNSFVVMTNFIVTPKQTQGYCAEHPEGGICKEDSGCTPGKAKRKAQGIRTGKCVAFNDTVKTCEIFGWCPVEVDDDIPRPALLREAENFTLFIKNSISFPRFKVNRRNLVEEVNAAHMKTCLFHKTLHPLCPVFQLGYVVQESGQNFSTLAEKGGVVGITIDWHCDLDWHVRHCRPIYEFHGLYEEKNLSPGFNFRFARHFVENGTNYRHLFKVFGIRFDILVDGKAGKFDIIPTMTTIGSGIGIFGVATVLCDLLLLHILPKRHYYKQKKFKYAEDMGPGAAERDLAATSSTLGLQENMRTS
Sequence of UniProt Q99619 (whole entry, looked up): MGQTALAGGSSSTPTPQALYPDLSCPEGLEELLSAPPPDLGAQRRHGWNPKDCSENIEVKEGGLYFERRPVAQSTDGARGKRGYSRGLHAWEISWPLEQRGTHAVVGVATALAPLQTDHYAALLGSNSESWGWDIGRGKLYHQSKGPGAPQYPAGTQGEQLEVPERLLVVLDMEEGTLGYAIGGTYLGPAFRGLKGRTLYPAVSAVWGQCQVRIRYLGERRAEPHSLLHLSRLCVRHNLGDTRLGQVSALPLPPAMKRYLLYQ

Compound | target | test | test system | conditions | scale | quantity | result
CCCCCCCCCC(=O)NC(CN1CCOCC1)[C@H](O)c1ccccc1.Cl (mixture of isomers) | Genome polyprotein NS3 helicase domain | DNA binding, inhibitor | hepatitis C virus | 100 µM, with: Cy5-dT15 DNA | – | inhibition | 2%
CC(=O)N[C@H](C(=O)N[C@@H](CC(N)=O)C(=O)N[C@@H](CCCCN)C(=O)N1CCC[C@H]1C(=O)N[C@@H](CC(C)C)C(=O)N1CCC[C@H]1C(=O)N1CCC[C@H]1C(=O)N[C@@H](CC(C)C)C(=O)N1CCC[C@H]1C(=O)N[C@H](C(=O)N[C@@H](C)C(N)=O)C(C)C)C(C)C | Tyrosine-protein kinase Fyn, SH3 domain (FYN, Homo sapiens, UniProt P06241) | ligand binding, FTIR spectroscopy, measured: asymmetric stretch band B | – | pH 7.0, FYN complex, with: 4 mM peptide | – | wavenumber | 2243.6 ± 0.4 cm⁻¹
O=C(O)C1CCCNC1 (centres unmarked) | Sodium- and chloride-dependent taurine transporter (SLC6A6, Homo sapiens, UniProt P31641, Y138A) | binding, microscale thermophoresis | – | 32.7 nM, fitted curve | higher = more binding | fraction bound | 0.00162
Cc1ccc(N2CC(C(N)=O)CC2=O)cc1 (centres unmarked) | SPRY domain-containing SOCS box protein 2, SPRY domain (Homo sapiens, UniProt Q99619) | binding, affinity selection mass spectrometry | – | – | baseline: other proteins in batch | fold enrichment | 1.29
Cc1ccccc1N1C(=O)c2cc(S(N)(=O)=O)c(Cl)cc2NC1C (centres unmarked) | Genome polyprotein NS3 helicase domain | DNA binding, inhibitor | hepatitis C virus | 100 µM, with: Cy5-dT15 DNA | – | inhibition | 1%
CC[C@H](C)[C@H](NC(=O)[C@H](CCCCN)NC(=O)CNC(=O)[C@@H](NC(=O)[C@@H](NC(=O)[C@H](CCSC)NC(=O)[C@H](Cc1c[nH]cn1)NC(=O)CN)[C@@H](C)O)C(C)C)C(=O)N[C@@H](Cc1ccc(O)cc1)C(=O)N[C@@H](C)C(=O)N[C@@H](C)C(=O)N[C@@H](CCSC)C(=O)N[C@@H](CCSC)C(=O)N[C@H](C(=O)N[C@@H](CCSC)C(=O)N[C@@H](CCC(=O)O)C(=O)N[C@@H](C)C(=O)N[C@@H](Cc1ccc(O)cc1)C(=O)N[C@@H](CCCNC(=N)N)C(=O)N[C@@H](CCC(N)=O)C(=O)N[C@@H](CO)C(=O)N[C@@H](CCCCN)C(=O)N[C@@H](C)C(=O)N[C@@H](CCCCN)C(=O)N[C@@H](CCCCN)C(=O)N[C@@H](CC(C)C)C(=O)N[C@@H](CCC(N)=O)C(=O)N[C@@H](C)C(=O)N[C@@H](CCSC)C(=O)N[C@@H](CCCNC(=N)N)C(=O)O)[C@@H](C)CC | Calmodulin-1, Ca2+-bound C-lobe (CALM1, Homo sapiens, UniProt P0DP23) | binding, isothermal titration calorimetry | – | pH 7.4, 15 °C, C-lobe, CaV2.1 IQ domain, with: Ca2+ | – | ΔH | -0.95 ± 0.04 kcal/mol
CCCCC[C@H](O)/C=C/[C@H]1C(=O)C[C@H](O)[C@@H]1C/C=C\CCCC(=O)O | Prostaglandin D2 receptor (PTGDR, Homo sapiens, UniProt Q13258, M112A) | agonist, ONE-GO BRET | – | 10 µM (10 µM) | baseline: wild-type receptor maximum | Gs protein activation | 106%
COc1cc(/C=C/C(=O)C(=Cc2ccccc2)C(=O)/C=C/c2ccc(O)c(OC)c2)ccc1O | haemin | binding, isothermal titration calorimetry | – | pH 7.4, 37 °C | – | ΔH | -23.77 ± 0.131 kcal/mol
CCCCSC[C@H]1CN(Cc2c[nH]c3c(N)ncnc23)C[C@@H]1O | Aminodeoxyfutalosine nucleosidase (Helicobacter pylori, UniProt Q9ZMY2) | – | – | forward isomerization rate | – | k3 | 0.3 ± 0.03 min⁻¹
N[C@H](COP(=O)(O)O)Cc1c[nH]cn1 | Act1 | substrate, coupled phosphate release | – | – | – | Km | 18 ± 1 µM
CCN1CCC[C@H]1CNC(=O)c1c(O)c(Cl)cc(Cl)c1OC | Adhesion G protein-coupled receptor D2 (ADGRD2, Homo sapiens, UniProt Q7Z7M1) | β-arrestin recruitment, TANGO luminescence, measured: GPR144 | – | concentration not given | baseline: basal luminescence | log2 fold change | 0.381
COc1cc(-c2oc3cc(O)cc(O)c3c(=O)c2O)ccc1O | ESR1 | array formation | PRL-HeLa | – | baseline: EC50 ERβ over EC50 ERα | selectivity ratio | 0.55
CC[C@@H]1[C@H](F)C(=O)N[C@@H]1COc1nccc2cc(C(N)=O)c(OC)cc12 | eIF-2-alpha kinase GCN2 (EIF2AK4, Homo sapiens, UniProt Q9P2K8) | ATP-site probe binding, ActivX profiling, measured: GCN2 | THP-1 cell lysate | 0.04 mM, Lys2 site | – | inhibition | 0.9%
N#Cc1cccc2c1CC[C@H]2NC(=O)c1ccc(-c2ccco2)[nH]1 | WD repeat-containing protein 91 WD40 domain, residues 392–747 | binding, SPR single-concentration screen | – | 45 µM | – | SPR response | 14.3 RU and 10.5 RU
Nc1ccn([C@H]2C[C@H](O)[C@@H](COP(=O)(O)OP(=O)(O)OP(=O)(O)O)O2)c(=O)n1 | DNA polymerase lambda (POLL, Homo sapiens, UniProt Q9UGP5, Y505A) | substrate, primer extension gel | – | Y505A mutant, AP-site template | – | kcat | 8.33e-05 s⁻¹
CC[C@H](C)[C@H](NC(=O)[C@H](C)NC(=O)[C@H](CCSC)NC(=O)[C@H](C)NC(=O)[C@H](C)NC(=O)[C@H](Cc1ccc(O)cc1)NC(=O)[C@@H](NC(=O)[C@H](CCCCN)NC(=O)CNC(=O)[C@@H](NC(=O)[C@@H](NC(=O)[C@H](CCSC)NC(=O)[C@H](Cc1c[nH]cn1)NC(=O)CN)[C@@H](C)O)C(C)C)[C@@H](C)CC)C(=O)N[C@@H](CCSC)C(=O)N[C@@H](CCC(=O)O)C(=O)N[C@@H](Cc1ccc(O)cc1)C(=O)N[C@@H](Cc1ccc(O)cc1)C(=O)N[C@@H](CCCNC(=N)N)C(=O)N[C@@H](CCC(N)=O)C(=O)N[C@@H](CO)C(=O)N[C@@H](CCCCN)C(=O)N[C@@H](C)C(=O)N[C@@H](CCCCN)C(=O)N[C@@H](CCCCN)C(=O)N[C@@H](CC(C)C)C(=O)N[C@@H](CCC(N)=O)C(=O)N[C@@H](C)C(=O)N[C@@H](CCSC)C(=O)N[C@@H](CCCNC(=N)N)C(=O)O | CALM1 Ca2+-bound N-lobe | binding, isothermal titration calorimetry | – | pH 7.4, 15 °C, N-lobe, CaV2.1 IQ domain, with: Ca2+ | – | stoichiometry | 1 ± 0.08

Compound | target | test | test system | conditions | scale | quantity | result
C=CC(=O)N1CCC(COCC(=O)N2CCN(c3nc(-c4cnc(N)nc4C(F)F)nc(N4CCOC[C@@H]4C)n3)CC2)CC1 | Serine/threonine-protein kinase WNK1 (WNK1, Homo sapiens, UniProt Q9H4A3) | KINOMEscan | – | 1 µM | baseline: DMSO control | remaining binding | 100%
O=C(/C=C/c1ccccc1)c1ccccc1 | ESR1 | array formation | PRL-HeLa | – | baseline: EC50 ERβ over EC50 ERα | selectivity ratio | 0.751
COc1ccc(C(=O)N[C@@H]2CCc3c(C#N)cccc32)cc1 | WD repeat-containing protein 91 WD40 domain, residues 392–747 | SPR | – | 45 µM | – | binding | 9% and 34%
C[C@]12CC[C@@H]3c4ccc(O)cc4C[C@@H](CCCCCCCCC[S+]([O-])CCCC(F)(F)C(F)(F)F)[C@H]3[C@@H]1CC[C@@H]2O (some centres unmarked) | ESR1 | antagonist, CALUX reporter | U2OS | 3e-06 µg/mL | – | antagonist response | 44.9%
N#Cc1cccc2c1CC[C@H]2NC(=O)c1ccc(S(=O)(=O)NCc2ccco2)cc1 | WD repeat-containing protein 91 WD40 domain, residues 392–747 | binding, SPR single-concentration screen | – | 45 µM | – | SPR response | 24.8 RU and 21.3 RU
O=C1NC(=O)C(c2ccccc2)(c2ccccc2)N1 | Glutamate receptor 2 (Homo sapiens, UniProt P42262) | ion current, positive allosteric modulator, SyncroPatch patch clamp | HEK293 | 30 µM | – | potentiation | 99%
N#CC1CCN(C(=O)c2ccc(CCc3ccccc3)cc2)CC1 | WD repeat-containing protein 91 WD40 domain, residues 392–747 | SPR | – | 45 µM | – | binding | -3% and -12%
O=C(O)[C@@H]1CCCN1 | Methyl-accepting chemotaxis protein, ligand-binding domain (Pectobacterium atrosepticum, UniProt Q6D515) | binding | – | – | – | delta Tm | binds
CC(=C/C(=O)O)/C=C/C=C(\C)C1C=C2C(C)(C)CCCC2(C)O1 (centres unmarked) | Rhodopsin (RHO, Homo sapiens, UniProt P08100, T17M) | ER retention, immunostaining co-localization, measured: opsin with calnexin | COS-7 transfected T17M | 30.00 µM | – | Pearson correlation coefficient | 0.47
CC[C@H](C)[C@H](NC(=O)[C@H](CCSC)NC(=O)[C@H](CCSC)NC(=O)[C@H](C)NC(=O)[C@H](C)NC(=O)[C@H](Cc1ccc(O)cc1)NC(=O)[C@@H](NC(=O)[C@H](CCCCN)NC(=O)CNC(=O)[C@@H](NC(=O)[C@@H](NC(=O)[C@H](CCSC)NC(=O)[C@H](Cc1c[nH]cn1)NC(=O)CN)[C@@H](C)O)C(C)C)[C@@H](C)CC)C(=O)N[C@@H](C)C(=O)N[C@@H](CCC(=O)O)C(=O)N[C@@H](Cc1ccc(O)cc1)C(=O)N[C@@H](Cc1ccc(O)cc1)C(=O)N[C@@H](CCCNC(=N)N)C(=O)N[C@@H](CCC(N)=O)C(=O)N[C@@H](CO)C(=O)N[C@@H](CCCCN)C(=O)N[C@@H](C)C(=O)N[C@@H](CCCCN)C(=O)N[C@@H](CCCCN)C(=O)N[C@@H](CC(C)C)C(=O)N[C@@H](CCC(N)=O)C(=O)N[C@@H](C)C(=O)N[C@@H](CCSC)C(=O)N[C@@H](CCCNC(=N)N)C(=O)O | CALM1 Ca2+-bound N-lobe | binding, isothermal titration calorimetry | – | N-lobe, CaV2.1 IQ domain, unit not given, with: Ca2+ | baseline: wild-type IQ domain | ΔΔG | 1.16
COc1ccc(F)cc1C(=O)NCc1ccc(-c2nn([C@@H](C)C(F)(F)F)c(N)c2C(N)=O)cc1 | Tyrosine-protein kinase ITK/TSK (ITK, Homo sapiens, UniProt Q08881) | kinase activity, inhibitor, HotSpot radiometric | – | 1000 nM, with: ATP at Km | – | remaining activity | 103 ± 8.3%
N[C@@H](Cc1ccc(O)c(O)c1)C(=O)O | Genome polyprotein NS3 helicase domain | DNA binding, inhibitor | hepatitis C virus | 100 µM, with: Cy5-dT15 DNA | – | inhibition | 1%
Nc1ncnc2c1ncn2[C@@H]1O[C@H](COP(=O)(O)CP(=O)(O)OP(=O)(O)O)[C@@H](O)[C@H]1O | P2X purinoceptor 1 (P2RX1, Homo sapiens, UniProt P51575) | calcium influx | – | 3.16 µM | baseline: ionomycin response | calcium influx | 75% and 84.5% and 90.3% and 97.4%
C[N+](C)(C)CCCCCC[N+](C)(C)C.[Cl-].[Cl-] | Genome polyprotein NS3 helicase domain | DNA binding, inhibitor | hepatitis C virus | 100 µM, with: Cy5-dT15 DNA | – | inhibition | 0%
CCCCCCCCCCCCCCc1ccc([C@H]2CC[C@H]([N+](C)(C)CCC)CC2)cc1.[I-] | Sphingosine kinase 1 (SPHK1, Homo sapiens, UniProt Q9NYA1) | inhibitor, radiometric flash-plate | cell lysate | with: sphingosine 10 µM | – | Ki/Km ratio | 3.6
O=C(NC1CCCS(=O)(=O)c2ccccc21)c1ccc2nc(O)cnc2c1 (centres unmarked) | WD repeat-containing protein 91 (Homo sapiens, UniProt A4D1P6) | binding, SPR steady state | – | 30 µM | – | SPR response | 45.3 RU

Some of these lines once more:
Compound | target | test | test system | conditions | scale | quantity | result
O=C(O)C1CCCNC1 (centres unmarked) | Sodium- and chloride-dependent taurine transporter (SLC6A6, Homo sapiens, UniProt P31641, Y138A) | binding, microscale thermophoresis | – | 32.7 nM, fitted curve | higher = more binding | fraction bound | 0.00162
C[N+](C)(C)CCCCCC[N+](C)(C)C.[Cl-].[Cl-] | Genome polyprotein NS3 helicase domain | DNA binding, inhibitor | hepatitis C virus | 100 µM, with: Cy5-dT15 DNA | – | inhibition | 0%
N[C@@H](Cc1ccc(O)c(O)c1)C(=O)O | Genome polyprotein NS3 helicase domain | DNA binding, inhibitor | hepatitis C virus | 100 µM, with: Cy5-dT15 DNA | – | inhibition | 1%
N[C@H](COP(=O)(O)O)Cc1c[nH]cn1 | Act1 | substrate, coupled phosphate release | – | – | – | Km | 18 ± 1 µM
COc1ccc(F)cc1C(=O)NCc1ccc(-c2nn([C@@H](C)C(F)(F)F)c(N)c2C(N)=O)cc1 | Tyrosine-protein kinase ITK/TSK (ITK, Homo sapiens, UniProt Q08881) | kinase activity, inhibitor, HotSpot radiometric | – | 1000 nM, with: ATP at Km | – | remaining activity | 103 ± 8.3%
